Measured values collected from several papers.
Numbers after ± are the reported error.

The Kd of `CCC(=O)[PH](=O)O` is reported as 7830 µM (PDC1 (Saccharomyces cerevisiae, UniProt P06169, C221E/C222A); circular dichroism; pH 6.0, 25 °C).
For `CC(C)[C@H](NC(=O)[C@H](CC(N)=O)NC(=O)CNC(=O)[C@H](CC(=O)O)NC(=O)[C@H](CCCNC(=N)N)NC(=O)[C@H](CC(N)=O)NC(=O)[C@@H](N)CC(=O)O)C(=O)N[C@@H](Cc1ccc(O)cc1)C(=O)N[C@@H](Cc1ccc(O)cc1)C(=O)N[C@@H](Cc1ccccc1)C(=O)O`, the Kd was 0.14 µM (Serine endoprotease DegS (degS, Escherichia coli, UniProt P0AEE3, K243D)).
`C=C1[C@@H]2CC[C@H]3[C@]4(C)C[C@H](O[C@@H]5O[C@H](CO)[C@@H](OS(=O)(=O)O)[C@H](OS(=O)(=O)O)[C@H]5OC(=O)CC(C)C)CC(C(=O)O)(C(=O)O)[C@H]4CC[C@]3(C2)[C@H]1O` has a Kd of 2.03 µM (SLC25A4 (Homo sapiens, UniProt P12235); binding, SPR).
The Kd of `Nc1ncnc2c1ncn2[C@@H]1O[C@H](COP(=O)(O)OP(=O)(O)OP(=O)(O)OC[C@H]2O[C@@H](n3cnc4c(N)ncnc43)[C@H](O)[C@@H]2O)[C@@H](O)[C@H]1O` is reported as 62 ± 10.9 µM (guaB (Bacillus subtilis, UniProt P21879)).
With `CC(C)CCC[C@@H](C)[C@H]1CC[C@@]2(C)C3=C(CC[C@]12C)[C@@]1(C)CC[C@H](O)C(C)(C)[C@@H]1CC3` the Kd was 60 ± 12 µM (Sterol 14-alpha demethylase (Acanthamoeba castellanii, UniProt L8GJB3); sterol binding, spectral titration; 40% w/v HPCD).
For `C[n+]1cc2c3c(ccc2c2ccc4cc5c(cc4c21)OCO5)OCO3`, the Kd was 110 ± 10 µM (L-ornithine N(5)-monooxygenase (Neosartorya fumigata, UniProt E9QYP0); fluorescence polarization displacement; pH 7.0, added: 30 nM fluorescent probe).
`CC1=C(/C=C/C(C)=C/C=C/C(C)=C/C=C/C=C(C)/C=C/C=C(C)/C=C/C2=C(C)CCCC2(C)C)C(C)(C)CCC1` has a Kd of 1.19 µM (GSTP1 (Homo sapiens, UniProt P09211); binding, SPR).
The Kd of `RPIIWIGQEISRVGDRENAYYAR` is reported as 0.045 ± 0.0061 µM (MCL1 (Homo sapiens, UniProt Q07820); binding, fluorescence anisotropy; peptide).
`CN[C@@](C)(C[18F])C(=O)O` has a tissue uptake of 3.1 ± 0.2 %ID/g (SCID mouse U87 xenograft, lung; 30 min, post injection).
For `N#Cc1ccc(/C=C/C(=O)O)cc1`, the Kd was 2.37 µM (Soluble acetylcholine receptor (Aplysia californica, UniProt Q8WSF8); binding, scintillation proximity; added: 20 nM [3H]epibatidine).
`[Co+2]` gave a Kd of 0.45 µM (methionine aminopeptidase (Acinetobacter baumannii, UniProt A0A7U4DGZ4); metal binding, activator, activity titration; ATCC 17978; divalent metal ion Kd, added: Met-AMC substrate).
`CC1=C(/C=C/C(C)=C/C=C/C(C)=C/CO)C(C)(C)CCC1` has a Kd of 0.05 ± 0.04 µM (Xenopus IRBP W587F; binding, retinol fluorescence enhancement).
`COc1ncc(C[n+]2csc(CCOP(=O)(O)OP(=O)(O)O)c2C)c(N)n1` gave a Kd of 2.68 ± 0.56 µM (aceE (Escherichia coli, UniProt P0AFG8); binding; pH 7).
`Nc1nc2c(ncn2[C@@H]2O[C@H](COP(=O)(O)O)[C@@H](O)[C@H]2O)c(=O)[nH]1` has a Kd of 261 ± 38 µM (GMP reductase (GMPR, Leishmania major, UniProt Q4QEB3); binding).

For quick reference, copied from above:
`COc1ncc(C[n+]2csc(CCOP(=O)(O)OP(=O)(O)O)c2C)c(N)n1` gave a Kd of 2.68 ± 0.56 µM (aceE (Escherichia coli, UniProt P0AFG8); binding; pH 7).
`CC1=C(/C=C/C(C)=C/C=C/C(C)=C/CO)C(C)(C)CCC1` has a Kd of 0.05 ± 0.04 µM (Xenopus IRBP W587F; binding, retinol fluorescence enhancement).
